Measured values of several laboratories.
Each line is one published result; not all experiments were run side by side. Numbers after ± are the reported error.
UniProt O70423, sequence (whole entry, looked up): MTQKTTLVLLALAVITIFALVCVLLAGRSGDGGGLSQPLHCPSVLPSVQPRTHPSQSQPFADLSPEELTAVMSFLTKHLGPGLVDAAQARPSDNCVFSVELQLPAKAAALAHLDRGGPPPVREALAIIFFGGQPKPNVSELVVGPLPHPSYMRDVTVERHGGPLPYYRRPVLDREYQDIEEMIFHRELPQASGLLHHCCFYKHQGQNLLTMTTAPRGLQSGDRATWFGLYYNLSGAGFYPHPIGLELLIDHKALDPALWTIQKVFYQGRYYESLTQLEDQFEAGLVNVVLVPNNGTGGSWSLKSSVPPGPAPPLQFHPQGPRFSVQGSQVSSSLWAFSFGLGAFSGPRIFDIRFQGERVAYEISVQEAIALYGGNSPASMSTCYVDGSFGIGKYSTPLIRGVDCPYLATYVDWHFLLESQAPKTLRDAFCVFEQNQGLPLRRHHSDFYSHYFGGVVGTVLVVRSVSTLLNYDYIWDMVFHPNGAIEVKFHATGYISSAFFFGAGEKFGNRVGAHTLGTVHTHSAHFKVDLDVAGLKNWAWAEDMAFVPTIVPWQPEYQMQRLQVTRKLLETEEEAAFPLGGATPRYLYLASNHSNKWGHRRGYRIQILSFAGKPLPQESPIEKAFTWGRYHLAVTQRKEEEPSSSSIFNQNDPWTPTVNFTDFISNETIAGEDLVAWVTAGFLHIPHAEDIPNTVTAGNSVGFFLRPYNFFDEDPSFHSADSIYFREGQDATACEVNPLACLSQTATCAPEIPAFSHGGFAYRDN
UniProt Q15349, sequence (whole entry, looked up): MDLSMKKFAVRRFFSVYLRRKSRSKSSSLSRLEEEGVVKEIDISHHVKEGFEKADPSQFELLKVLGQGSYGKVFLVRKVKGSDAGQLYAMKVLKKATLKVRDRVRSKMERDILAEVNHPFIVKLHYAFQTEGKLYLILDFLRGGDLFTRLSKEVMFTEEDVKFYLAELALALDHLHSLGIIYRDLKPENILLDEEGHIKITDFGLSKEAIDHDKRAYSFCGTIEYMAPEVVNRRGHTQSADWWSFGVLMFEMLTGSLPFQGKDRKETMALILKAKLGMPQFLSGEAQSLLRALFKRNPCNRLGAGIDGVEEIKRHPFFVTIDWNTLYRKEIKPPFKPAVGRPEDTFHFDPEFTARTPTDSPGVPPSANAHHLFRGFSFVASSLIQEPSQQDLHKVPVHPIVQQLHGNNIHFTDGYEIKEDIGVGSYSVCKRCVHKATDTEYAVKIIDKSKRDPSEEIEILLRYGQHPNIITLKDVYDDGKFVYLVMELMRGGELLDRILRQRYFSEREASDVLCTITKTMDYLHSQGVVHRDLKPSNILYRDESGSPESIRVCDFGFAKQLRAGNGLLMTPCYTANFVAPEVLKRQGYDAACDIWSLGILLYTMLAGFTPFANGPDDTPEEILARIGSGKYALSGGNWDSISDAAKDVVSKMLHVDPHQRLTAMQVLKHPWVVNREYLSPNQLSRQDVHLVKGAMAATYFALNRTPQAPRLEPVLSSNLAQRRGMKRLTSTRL
UniProt P08684, sequence (whole entry, looked up): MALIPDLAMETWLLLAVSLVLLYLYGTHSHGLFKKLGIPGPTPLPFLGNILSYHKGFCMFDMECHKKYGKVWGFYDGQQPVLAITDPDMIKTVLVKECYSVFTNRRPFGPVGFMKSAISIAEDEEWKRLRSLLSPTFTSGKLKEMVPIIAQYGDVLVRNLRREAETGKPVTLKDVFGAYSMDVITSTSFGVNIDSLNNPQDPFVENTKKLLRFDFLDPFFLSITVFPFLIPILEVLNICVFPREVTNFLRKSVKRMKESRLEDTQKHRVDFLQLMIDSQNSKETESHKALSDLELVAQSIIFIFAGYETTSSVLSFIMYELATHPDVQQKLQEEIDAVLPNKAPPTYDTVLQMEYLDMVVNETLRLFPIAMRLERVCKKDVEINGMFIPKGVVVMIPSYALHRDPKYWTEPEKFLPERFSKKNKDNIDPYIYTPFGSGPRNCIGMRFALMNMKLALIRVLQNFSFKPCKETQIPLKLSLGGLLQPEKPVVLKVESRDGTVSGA

| Compound | target or system | test | system | conditions | how to read | quantity | value |
| --- | --- | --- | --- | --- | --- | --- | --- |
| C[C@@H](NC(=O)N1C(=O)[C@H](Cc2ccnc(N)c2)[C@H]1C(=O)O)C1CCCCC1 |  | UPLC-MS/MS | healthy adult Chinese volunteers, plasma | continuous intravenous infusion, 1.5 mg/kg/h, day 1 of 5-day infusion, geometric mean |  | Css | 4300 ng/mL |
| CC[C@H](C)[C@H](NC(=O)CN)C(=O)N[C@@H](CC(C)C)C(=O)N[C@@H](CC(=O)O)C(=O)N[C@@H](C)C(=O)N[C@H](C(=O)N[C@@H](CC(C)C)C(=O)N[C@@H](CC(=O)O)C(=O)N[C@@H](C)C(=O)N[C@H](C(=O)N[C@@H](CCCCN)C(=O)N[C@@H](C)C(=O)N[C@H](C(=O)N[C@@H](C)C(=O)N[C@@H](CCCCN)C(=O)N[C@@H](C)C(=O)N[C@H](C(=O)N[C@@H](CCCCN)C(=O)N[C@@H](C)C(=O)N[C@@H](CCCCN)C(=O)N[C@@H](C)C(=O)NCC(N)=O)[C@@H](C)CC)[C@@H](C)CC)[C@@H](C)CC)[C@@H](C)CC |  | circular dichroism | 30% TFE | 100 µM |  | helical content | 100% |
| O=C(O)CCC(=O)O.[2H]C([2H])([2H])Oc1cc(C)c2[nH]ccc2c1CN1CC[C@@H](C2CC2)C[C@H]1c1ccc(C(=O)O)cc1 |  | multiple ascending dose | healthy Chinese subjects | 300 mg once daily |  | subjects with allergic dermatitis TEAE | 0% |
| O=c1[nH]c(=O)n([C@H]2C[C@H](O)[C@@H](CO)O2)cc1CCCC[18F] |  |  | male CD-1 nu/nu mice, RG2 tumour, kidney | intravenous, dose not given, 2 h |  | biodistribution | 0.58 ± 0.1 %ID/g |
| CC1(C)OC[C@@H](c2ccc3ccccc3c2)N[C@@H]1c1cccc(F)c1 |  | shake-flask, LC-HRMS | aqueous buffer | 16 h, pH 6.8 |  | solubility | < 4 µM |
| Cc1nc2ncnn2c(O)c1NS(=O)(=O)c1ccc(Br)cc1 |  |  | aqueous buffer | pH 7.4 |  | solubility | 2410 µg/mL |
| Cn1cc(-c2ccc(-c3cncc(Cl)c3N3CCC4(CCNC4=O)CC3)cc2)cn1 | COLO 205 | gene expression, microarray, refers to: PLK2 mRNA |  | concentration not given, 2 h | relative to: untreated cells | log2 fold change | 2.1 |
| CC[C@@H]1[C@H](F)C(=O)N[C@@H]1COc1nccc2cc(C(N)=O)c(OC)cc12 | Ribosomal protein S6 kinase alpha-2 (RPS6KA2, Homo sapiens, UniProt Q15349) | ATP-site probe binding, ActivX profiling, refers to: RSK3 | THP-1 cell lysate | 0.2 mM, Lys2 site |  | inhibition | 2.6% |
| O=C(Nc1cnccc1Cl)N1CCN(Cc2ccc3c(c2)OC(F)(F)O3)CC1 |  | refers to: Fatigue | human healthy young women | 100 mg, multiple dose |  | adverse event incidence | 33.3% |
| Cn1cnc2ccc(Nc3c(F)ccc(NS(=O)(=O)N4CC(F)C4)c3Cl)c(Cl)c2c1=O |  | refers to: lipase increased any grade | human patients | dose not given, monotherapy trial | relative to: patients | patients with lipase increased | 3% |
| Cc1ccc([C@@H]2O[C@H](CO)[C@@H](O)[C@H](O)[C@H]2O)cc1Cc1ccc(-c2ccc(F)cc2)s1 |  |  | Japanese type 2 diabetes patients | 200 mg, day 1, 24 h urine collection | relative to: baseline | urinary potassium excretion change | 7.02 mEq |
| CCC(C)n1ncn(-c2ccc(N3CCN(c4ccc(OCC5COC(Cn6cncn6)(c6ccc(Cl)cc6Cl)O5)cc4)CC3)cc2)c1=O (stereo not shown) |  |  | human, plasma | oral, dose not given, day 12 predose, median |  | trough plasma concentration | 66.4 ng/mL |
| COc1ncc(-c2nc3c(n2C(C)C)[C@H](c2ccc(Cl)cc2)N(c2cc(Cl)cn(C)c2=O)C3=O)c(OC)n1 |  |  | human patients, plasma | oral, 350 mg, high-dose arm, cycle 2 day 1 |  | median Tmax | 2.9 h |
| O=C(Nc1ccc(OC(F)(F)Cl)cc1)c1cnc(N2CC[C@@H](O)C2)c(-c2ccn[nH]2)c1 |  | refers to: Amylase increase, grade ≥3 | human patients, dose-finding study | oral, sample A of sample B patients |  | patients with event | 7.1% |
| NC(=O)c1ccc(NCCCN2CCOCC2)c([N+](=O)[O-])c1 |  |  | aqueous buffer | pH 7.4 |  | solubility | 599 µg/mL |
| O=C(O)CCCCCCCCCCCCCCC(=O)O |  |  | human, plasma | endogenous baseline diurnal |  | Cmin | 0.109 ± 0.014 µM |
| CCN1/C(=C/C(C)=O)Sc2ccc(F)cc21 |  |  | cynomolgus monkey | oral, 100 mg/kg, 6 h post-dose |  | systolic blood pressure | 117 ± 8 mmHg |
| COc1cccc(-c2n[nH]c(SCc3ccccn3)n2)c1OC |  |  | Sprague-Dawley rats, both sexes | oral dietary, 100 mg/kg/day, day 90, 6 h |  | plasma concentration | 8220 ng/mL |
| CO[C@H]1C[C@@H]2CC[C@@H](C)[C@@](O)(O2)C(=O)C(=O)N2CCCC[C@H]2C(=O)O[C@H]([C@H](C)C[C@@H]2CC[C@@H](O)[C@H](OC)C2)CC(=O)[C@H](C)/C=C(\C)[C@@H](O)[C@@H](OC)C(=O)[C@H](C)C[C@H](C)/C=C/C=C/C=C/1C |  |  | healthy adult horses | intravenous, 0.06 mg/kg, 48 h |  | heart rate | 34.3 ± 6.6 beats/min |
| Cc1c(C(=O)O)ccc2c3n(nc12)[C@@H]1[C@H](C3)N(CC2CC2)[C@@]2(C(=O)Nc3cc(Cl)ccc32)[C@H]1c1cccc(Cl)c1F |  |  | human patients phase Ia | oral, dose not given, grade ≥3, all patients |  | decreased weight incidence | 0% |
| Cc1coc([C@H]2C[C@H]3[C@@H](CF)SC(N)=N[C@@]3(c3ccc(F)cc3F)CO2)n1 |  |  | male 129/SVE mouse, CSF | subcutaneous, 80 mg/kg, 14 h |  | CSF concentration | 28 nM |
| CC(C)(C(=O)N1CCOc2c(C#N)cncc2C1)C(F)F |  | refers to: Dizziness | human | oral, 15 mg twice daily, 14 days, multiple ascending dose |  | subjects with adverse event | 12.5% |
| N=C(N)NC(=O)c1ccc(Cl)c(S(N)(=O)=O)c1 |  |  | aqueous buffer | pH 7.4 |  | solubility | > 3510 µg/mL |
| NCc1cc2c(cc1F)C(=O)N(C1CCC(=O)NC1=O)C2 (stereo not shown) | Amine oxidase [copper-containing] 3 (Mus musculus, UniProt O70423) | substrate, LC-MS/MS | recombinant mouse enzyme | 10 µM, 4 h, pH 7.4, added: inhibitor 0.25 µM |  | concentration | 9 µM |
| CCOc1c([C@H](C)n2nc(C)c3c(N)ncnc32)cc(Cl)c(F)c1[C@@H]1CNC(=O)C1 |  | refers to: QTcF above 500 ms | previously treated B-cell malignancy | oral, 20 mg once daily, baseline QTcF ≤450 ms |  | ECG observations | 0% |
| NC/C(=C\F)COc1cccc(Cn2c(=S)[nH]c(=O)c3[nH]cnc32)c1 |  |  | C57BL/6J mice, lung | oral, 15 mg/kg single, 1 h |  | concentration | 398 ng/mL |

| Compound | target or system | test | system | conditions | how to read | quantity | value |
| --- | --- | --- | --- | --- | --- | --- | --- |
| C[C@@H](Oc1ccc(S(C)(=O)=O)cc1C(=O)N1C[C@@H]2C[C@]2(c2cc(C(F)(F)F)on2)C1)C(F)(F)F |  |  | young humans, plasma | oral, 50 mg once daily, multiple dose, geometric mean |  | half-life at steady state | 41.6 h |
| N#Cc1ccc([C@H]2COC[C@@H](C3CCCC3)N2)cc1 |  | shake-flask, LC-HRMS | aqueous buffer | 16 h, pH 6.8 |  | solubility | > 750 µM |
| CCc1cc(C(=O)NC)c2nccc(N3CCc4c(cc(Cn5ccnc5)cc4-c4cn(C)nc4C(F)(F)F)C3=O)c2c1 |  |  | Sprague Dawley rats | oral, 50 mg/kg once daily, 7 days |  | serum UREA level | 6.1 ± 0.12 mmol/L |
| NC1(C(=O)N[C@@H](CCO)c2ccc(Cl)cc2)CCN(c2nc[nH]c3nccc2-3)CC1 |  |  | metastatic CRPC patients | 480 mg b.i.d., grade 3 to 4, treatment-related, added: enzalutamide 160 mg daily |  | incidence of Pyrexia | 0% |
| COc1ccc([C@@H](O)c2cc(-c3ncnc4cc(N5CCOCC5)ccc34)c(F)cc2Cl)nn1 |  |  | locally advanced rectal cancer | oral, 250 mg, added: capecitabine and radiotherapy |  | rectal tenesmus TEAE | 83% |
| O=C(OC(C(F)(F)F)C(F)(F)F)N1CCN(Cc2cccc(Oc3ccccc3)c2)CC1 |  | PET blocking study | rhesus monkey, brain FCX | 0.3 mg/kg, compound pretreatment, added: [18F]T-401 tracer |  | Ktrans | 0.0045 min⁻¹ |
| Cc1cc(Nc2ncnc3ccc(NC4=NC(C)(CO)CO4)cc23)ccc1Oc1ccn2ncnc2c1 (stereo not shown) |  |  | human, plasma | oral, 300 mg tucatinib single dose, day 1, tucatinib alone |  | Cmax (arithmetic mean) | 48.3 ng/mL |
| CO[C@H]1C[C@@H]2CC[C@@H](C)[C@@](O)(O2)C(=O)C(=O)N2CCCC[C@H]2C(=O)O[C@H]([C@H](C)C[C@@H]2CC[C@@H](OC(=O)NCCOCCOCCOCCOCCOCCOCCOCCOCCC(=O)N3CCc4cc(Cn5nc(-c6ccc7oc(N)nc7c6)c6c(N)ncnc65)ccc4C3)[C@H](OC)C2)C[C@@H](O)[C@H](C)/C=C(\C)[C@@H](O)[C@@H](OC)C(=O)[C@H](C)C[C@H](C)/C=C/C=C/C=C/1C |  |  | human, plasma | intravenous, 10 mg, Cycle 1, 2 h infusion | relative to: Day 15 over Day 1 | AUClast accumulation ratio | 1.6 |
| CN1CCC[C@H](CN2c3ccccc3Sc3ccccc32)C1.Cl |  |  | ICR mouse female fasted, kidney | oral, 16 mg/kg |  | AUC(0-t) | 12000 ng·h/mL |
| Cc1ccc(Sc2ccccc2N2CCNCC2)c(C)c1 |  | refers to: Thirst | healthy adult men | oral, 5 mg single dose, 10 day |  | participants with TEAE | 0% |
| N#Cc1ccc([C@H]2COC[C@@H](C3CC3)N2)cc1 |  | shake-flask, LC-HRMS | aqueous buffer | 16 h, pH 6.8 |  | solubility | > 750 µM |
| CNCCOC12CC3(C)CC(C)(CC(Cn4ncc(-c5ccc(N6CCc7cccc(C(=O)Nc8nc9ccccc9s8)c7C6)nc5C(=O)O)c4C)(C3)C1)C2 |  |  | beagle dog, male, anaesthetised | intravenous bolus, 0.03 mg/kg, 60 min | relative to: baseline | QRS duration change | -2 ms |
| CC[C@H]1[C@@H](O)[C@@H]2[C@H](CC[C@]3(C)[C@@H]([C@H](C)CCNC(=O)NS(=O)(=O)c4ccc(C(C)(C)C)cc4)CC[C@@H]23)[C@@]2(C)CC[C@@H](O)C[C@@H]12 | Cytochrome P450 3A4 (CYP3A4, Homo sapiens, UniProt P08684) |  | human, plasma | dose not given, mean, added: fluconazole |  | AUC(0-inf) | 1660 ng·h/mL |
| CC(C)(C)c1ccc([C@@H]2COC[C@H](C3CCCC3)N2)cc1 |  | shake-flask, LC-HRMS | aqueous buffer | 16 h, pH 6.8 |  | solubility | < 4 µM |
| C[C@H]1CN(C(=O)CC#N)[C@]12CCN(c1ncnc3[nH]ccc13)C2 |  |  | healthy adults, plasma | oral, 6 mg single dose |  | Tmax, median or range | 0.8 h |
| O=c1[nH]c(=O)n([C@H]2C[C@H](O)[C@@H](CO)O2)cc1CCCCC[18F] |  |  | male CD-1 nu/nu mice, RG2 tumour, bone | intravenous, dose not given, 2 h |  | biodistribution | 1.79 ± 0.67 %ID/g |
| O=C(Cn1c(NCCO)nc2ccccc21)c1cccc([N+](=O)[O-])c1 |  |  | aqueous buffer | pH 7.4 |  | solubility | 2.38 µg/mL |
| C=CC(=O)N1CCC([C@@H]2CCNc3c(C(N)=O)c(-c4ccc(Oc5ccccc5)cc4)nn32)CC1 |  |  | rat plasma | 800 ng/mL, 4 h, 10 °C, autosampler | relative to: nominal concentration | stability relative error | 5.7% |
| CN1CCC(CNc2ccc3ncc(-c4cccc(OC(F)(F)F)c4)n3n2)CC1 |  | organ toxicity signature, BioMAP Diversity PLUS | primary human cell cocultures |  |  | lowest toxic concentration | ≥ 1.1 µM |
| C#C[C@]1(O)CC[C@H]2[C@@H]3CCC4=CC(=O)CC[C@@H]4[C@H]3CC[C@@]21CC |  |  | control baculosomes without CYP | 5 µM, 60 min, pH 7.4 | relative to: non-incubated | concentration decrease | ~5% |
| Cc1cc(C)c(CNC(=O)c2cc(Cl)c3c(c2C)O[C@@](C)([C@H]2CC[C@H](N(C)C)CC2)O3)c(=O)[nH]1 |  |  | human male, urine | oral, 200 mg, 0 to 48 h | relative to: dose | excretion as parent | 10% |
| COc1ccc2c(c1)CN(C(=O)CCN1CCC(Cc3ccccc3)CC1)CC[S@@+]2[O-] |  | telemetry | conscious male beagle dogs | intravenous, 4 mg/kg, 0.5 h |  | QRS duration | 34 ± 11 ms |
| N#Cc1ccccc1[C@@H]1COC[C@]2(CC[C@H](c3ccccc3)CC2)N1 |  | shake-flask, LC-HRMS | aqueous buffer | 16 h, pH 6.8 |  | solubility | > 750 µM |
| N[C@@H](C[18F])C(=O)O |  | PET imaging | female athymic nude mice, U-87 MG xenograft, muscle | intravenous, 60 min |  | tracer uptake | 0.88 ± 0.18 %ID/cc |
| CC1(C)OC[C@H](c2ccc(C(F)(F)F)cc2)N[C@@H]1c1ccc(Cl)c(Cl)c1 |  | shake-flask, LC-HRMS | aqueous buffer | 16 h, pH 6.8 |  | solubility | < 4 µM |
| O=C(Nc1nc2cccc(-c3ccc(CN4CCS(=O)(=O)CC4)cc3)n2n1)C1CC1 |  | refers to: any adverse event | human rheumatoid arthritis patients | oral, 300 mg once daily, 4 weeks, regardless of relatedness |  | treatment-emergent adverse events | 45% |
